# Measured values pooled from the literature.
# Numbered parts are unrelated; each lists some results of a single study. Changes are numbered by the printed parent chain.

# Series 1 — target: CCNE2, cyclin fold, Cln2 fusion (human); method: yeast growth competition, sequencing; medium: yeast; notes: weak parent motif; reference: not given; direction: higher = stronger binding
# Starting sequence: SGO1 docking peptide (human); PLAKRALKYTDEK
Variant,normalised enrichment score
K8A,0.294
D11A,0.472
K13A,0.157
Y9A,0.298
P1A,0.388
T10A,0.765

# Series 2 — target: BATF, bZIP domain (human); method: DHFR protein complementation; medium: yeast; reference: wild-type JUN-FOS pair; direction: higher = stronger binding
# Notes: single substitutions, most at no-binding floor
# Starting sequence: JUN, bZIP domain (human); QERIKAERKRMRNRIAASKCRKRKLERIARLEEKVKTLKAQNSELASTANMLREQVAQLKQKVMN; partner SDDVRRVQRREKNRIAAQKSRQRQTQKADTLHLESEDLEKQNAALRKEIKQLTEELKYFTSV
Variant,binding fitness [natural log]
K36M,0.0842
K34R,0.114
T48F,-0.104
I28G,0.0626
N42G,-0.26
I28T,-0.048
A57P,-1.26
L59S,-0.221
I28Q,0.0346
L31G,-0.343
T48Y,-0.0577
L38R,-0.592
R30T,0.109
R30Y,-0.0129
T37H,0.129
Q55V,-0.276
I28A,-0.0532
M51K,0.0627
I28L,0.0645
Q55F,-0.385
L52I,-0.169
I28C,-0.124
A40L,-0.0976
M51A,0.105
E44S,-0.0785

# Series 3 — method: EMSA with sequencing; form: double-stranded DNA, one strand shown; medium: in vitro; concentration: 10 and 20 nM; reference: negative control set to 0; direction: higher = stronger binding
# Target: Hepatocyte nuclear factor 3-alpha (Foxa1, Mus musculus, UniProt P35582, residues 1-468, full length assumed)
# Notes: whole designed probe, mean of two concentrations, ends assumed
# Target sequence (chain): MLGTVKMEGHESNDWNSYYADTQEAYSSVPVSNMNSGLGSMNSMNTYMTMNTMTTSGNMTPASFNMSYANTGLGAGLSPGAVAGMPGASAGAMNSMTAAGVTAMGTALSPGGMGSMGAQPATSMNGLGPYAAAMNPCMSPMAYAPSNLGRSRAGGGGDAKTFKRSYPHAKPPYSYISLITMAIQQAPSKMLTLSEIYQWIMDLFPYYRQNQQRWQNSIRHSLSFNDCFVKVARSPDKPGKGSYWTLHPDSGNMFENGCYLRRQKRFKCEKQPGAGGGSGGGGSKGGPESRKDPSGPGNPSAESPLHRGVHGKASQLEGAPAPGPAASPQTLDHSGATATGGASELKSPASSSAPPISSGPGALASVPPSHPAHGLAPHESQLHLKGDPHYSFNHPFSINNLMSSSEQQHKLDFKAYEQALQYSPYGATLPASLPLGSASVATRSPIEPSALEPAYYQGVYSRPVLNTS
Oligonucleotide,normalised bound fraction
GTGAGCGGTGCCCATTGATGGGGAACGTGTGTGCGCGCGCGTGTGTGTGTGTTTTCTTAAGCCGGGCTATTCAAACCCTGCTGCAATTCTCCGGTAAAGGGGCACAATGATTCATTAATGCAAATAAACGGATTGCAAACGGCGCGGTTCGCGCACTTTGCAGCCGGCCCGGTGGAGCAGCCAGTGCCGGATTTCTCCCTTTTTTTGCAGATCTGCAGATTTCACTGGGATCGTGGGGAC,0.396 ratio
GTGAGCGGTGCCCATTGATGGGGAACATCTTCCCCCTCTTCCTTGCCCCACCAGCTCACCTACGGGGGTTATTTGCAGATAGGAAAATAAATAAAGCCGGCATTCGTTAACCCTCTTCTGGCGCAAACTGCTGTTTGCTCTGGATCTAACATGGTCCTTTGGCGACGCCAGGCTCCGGGAGAGCAAAGCACCGTGTCAGGGCCATGATCCGGGCTCGCCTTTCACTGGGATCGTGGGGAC,0.336 ratio
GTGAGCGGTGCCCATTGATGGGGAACGCAGGTCCTGGAATCTGTCAGGGGTGGGACTCTGCCATCTTGTGGTTCAATAAGCTCTCCAGATGATTCTGATGCACATGTTTGAGAGCCACTAGATTACATATAGCAGAGAAACCACCTGTCTCTCACCTCAAAGCTGACTCACCTGCAGAAACAATGAAAGATGATAATGACAGCCCCCCCAAAATACCTCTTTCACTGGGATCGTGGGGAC,-0.0422 ratio
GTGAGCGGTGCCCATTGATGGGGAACAATATTTCAAACACTACGTACCCCAACTGACATTTGAGTAGCAGTTAAGTTCTTGGAACGCTGCCATGTTACGTAACTTTGATCTAGCTCATTGTAAACAGGATGAAATAGGGCAGTTAAAAGACTAATGGTCAGTGAAATCTACAACAGGAATGGAAAGAATTTTCCCCTTAAAAATTTGGAAATCCTTATTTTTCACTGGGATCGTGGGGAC,-0.039 ratio
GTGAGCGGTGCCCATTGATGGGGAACGGCCTTTCAATATGCTATAGTGTCTATCAGTTTCTTTTAGGCTTATTCTATCACAATTTTCATTCTCTATTAATCCCCTAAGTGTCTCTATAAGTAATTTACTAGATTATTTGGAAAGTTGCTGTTTAAAGAACTACTTGTAAGTTCAAGTGGCCTTTGGAGTGTGAATAAGTACCCATAATTCATCTATGATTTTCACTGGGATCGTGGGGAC,-0.0122 ratio

# Series 4 — method: RNA Bind-n-Seq; form: RNA; medium: in vitro; concentration: 365 nM; reference: no-protein control; direction: higher = stronger binding
# Target: RNA binding protein fox-1 homolog 2, RRM domain, GST-SBP tag (RBFOX2, Homo sapiens, UniProt O43251-10, residues 100-194)
# Notes: natural RNA segment, single round, ends assumed
# Construct (chain): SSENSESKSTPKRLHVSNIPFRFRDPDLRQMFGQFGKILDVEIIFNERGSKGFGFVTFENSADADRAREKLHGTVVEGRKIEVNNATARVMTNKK
Oligonucleotide,RBNS enrichment (R)
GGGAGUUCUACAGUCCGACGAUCAGUAUUUUGAGUGUUUUUCAAAUGUUUGUACGUUAUCUUGCACUGCUCUAAUAAAAAUGAAAGCUCUCUGACAAGAAAUAGUUCUGGAUGGUUUGAAGAUCUGCGGGGAAUGGAAUUCUCGGGUGCCAA,0.714
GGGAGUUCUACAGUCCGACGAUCUUCUGUCAAGUGUUGGUAGAAUGGGCUGAAAAGACAGGUACUUGCACCGAAAGAGCUCUUCUUUUCCCCUUAGAUGUACAGUAGGAGAGGUUGUUAAGUGUUCUCUCUUUUGGAAUUCUCGGGUGCCAA,0.555
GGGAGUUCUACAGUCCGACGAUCCAGGCUGGCAGCUCUCCAGUCAGGAGGCAUAGUUUUUACUGAACAAUCAAAGCACUUGGACUCUUGCUCUUUCUACUCUGAACUAAUAAAUCUGUUGCCAAGCUGGCUAGUGGAAUUCUCGGGUGCCAA,0.246
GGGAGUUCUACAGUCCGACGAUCUCCAUAACUCCAAGUGAGUCUGUAAUGUUUGUGAAGCUUGACUGUAACCAUGUUUUUUCUGUUUAAUUAUGUAAAAAACAAAACUACAACAACAAAAAAAGAAAAAAGUUUGGAAUUCUCGGGUGCCAA,0.602
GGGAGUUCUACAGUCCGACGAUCUGAGGCCGAGACCUUGAUGGGAAGAGGAUGCUCCCUUGUUACAAAUAAAGAAGGGCAGUGUGAACCCAGGCAGUUGAUGUCAUGAUUCCAUGUGGCCAGUCCUGUGGGACUGGAAUUCUCGGGUGCCAA,0.447
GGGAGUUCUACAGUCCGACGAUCAUGGUCCCAUUCAUUCACUAUUGCCCCCAACCCCGGGAUUUUGGGUGGUCUCCACAGCCACCAUCAUACACUCAUCCCGUGUUUUCUUCCAAAAAGUCACCUCAGCAGCCUGGAAUUCUCGGGUGCCAA,0.806
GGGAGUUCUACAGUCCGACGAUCACCUGCGUGGCUUCAGACAAGGCCCCAGCGUUACUGGGCUCAGCUUGUUGUUCUGUGUGGAGCGUGAGGUGAGAAAACCCCUCUGAAAAGAUGUGGUCGGGGCCACGCUUUGGAAUUCUCGGGUGCCAA,0.719
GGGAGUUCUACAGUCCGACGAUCCCAUGGAUGCAUAUAGGAUGUUUGGGAGCAUCAUCCGUGAAGAAAAAAUCAAUUAAAUCAUUGUGUUCAACAGGAAUAUUUAAAAUAUUCUGCAUGAAUCCUGUGGCUGUUGGAAUUCUCGGGUGCCAA,0.61

# Series 5 — method: protein binding microarray; form: double-stranded DNA, one strand shown; medium: in vitro; concentration: not given; reference: not given; direction: higher = stronger binding
# Target: Histone acetyltransferase KAT6A, winged helix 1, GST fusion (KAT6A, Homo sapiens, UniProt Q92794, residues 1-85)
# Notes: 8-mer, flanks averaged, mean of 2 arrays, mostly near background
# Target sequence (chain): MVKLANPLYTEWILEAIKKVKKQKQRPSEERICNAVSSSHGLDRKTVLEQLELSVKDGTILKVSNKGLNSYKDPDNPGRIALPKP
Oligonucleotide,E-score
CTGCCGAC,0.21
GCAAACCA,-0.102
ATGTCCCC,-0.0176
GATGGCAA,-0.0525
AGGGTTGA,-0.143
AATGCCGT,0.4
ACTCCAGG,-0.0581
CTTAACCA,-0.214
ACACACGG,0.327
AACTCCCA,-0.108
CCGTTCAG,0.156
CATACTTC,-0.165
AGCGGAAC,0.31
AGCAGGGG,-0.147
CCCTCGAC,-0.0678
CCGCTCAC,0.385
AGGCGGCA,0.172
ACACACAG,-0.147
AACACTCC,-0.0191
ATGGGGCG,-0.0767
GCGTTCTA,0.101
CTTCTACC,-0.081
TATTTGCA,-0.319
ACCGCTTG,0.124
ACAGCATG,-0.0717

# Repeated from above (series 2):
Variant,binding fitness [natural log]
L38R,-0.592
R30T,0.109
R30Y,-0.0129
T37H,0.129
Q55V,-0.276
I28A,-0.0532
M51K,0.0627
I28L,0.0645
Q55F,-0.385
L52I,-0.169
I28C,-0.124
